# Published values gathered from unrelated publications.
# Each line is one published result; not all experiments were run side by side. Several values in a cell are separate wells, animals, samples, runs or records. ± marks the error that the study gave.
# UniProt P31751, sequence (whole entry, looked up): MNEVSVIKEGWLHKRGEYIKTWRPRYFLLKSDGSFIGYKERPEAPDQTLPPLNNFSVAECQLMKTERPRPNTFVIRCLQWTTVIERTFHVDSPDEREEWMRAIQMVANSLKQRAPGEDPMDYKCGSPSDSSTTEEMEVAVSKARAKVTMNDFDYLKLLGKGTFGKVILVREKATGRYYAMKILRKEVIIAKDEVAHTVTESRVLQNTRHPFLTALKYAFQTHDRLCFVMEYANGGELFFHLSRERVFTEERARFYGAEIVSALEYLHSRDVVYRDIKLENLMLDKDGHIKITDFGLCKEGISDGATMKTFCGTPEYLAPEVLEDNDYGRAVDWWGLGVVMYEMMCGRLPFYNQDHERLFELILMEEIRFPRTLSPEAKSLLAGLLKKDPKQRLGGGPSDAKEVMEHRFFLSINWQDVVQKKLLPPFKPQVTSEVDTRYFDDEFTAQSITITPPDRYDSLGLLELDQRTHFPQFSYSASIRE
# UniProt P08684, sequence (whole entry, looked up): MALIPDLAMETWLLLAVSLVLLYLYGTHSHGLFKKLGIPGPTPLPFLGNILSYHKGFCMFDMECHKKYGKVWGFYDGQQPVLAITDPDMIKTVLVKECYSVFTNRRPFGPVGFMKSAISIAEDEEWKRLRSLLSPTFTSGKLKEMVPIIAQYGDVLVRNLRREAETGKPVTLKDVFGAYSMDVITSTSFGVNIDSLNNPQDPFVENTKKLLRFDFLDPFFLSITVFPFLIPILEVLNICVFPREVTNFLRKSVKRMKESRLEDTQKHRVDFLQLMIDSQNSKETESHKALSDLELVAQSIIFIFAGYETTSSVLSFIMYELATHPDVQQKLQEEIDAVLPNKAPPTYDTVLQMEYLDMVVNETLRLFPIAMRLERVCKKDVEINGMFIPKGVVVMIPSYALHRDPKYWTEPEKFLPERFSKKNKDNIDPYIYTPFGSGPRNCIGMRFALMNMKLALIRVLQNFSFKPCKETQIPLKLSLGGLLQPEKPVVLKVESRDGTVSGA
Structure (SMILES),tested on,assay,test system,setting,scale,measurement,value
CC1(C)[C@H](C(=O)OCc2cccc(Oc3ccccc3)c2)[C@@H]1C=C(Cl)Cl,human cytosolic CES1,IVIVE from expressed enzymes,"human, liver, in vivo scaled","0.1 µM, age-specific",,enzyme contribution to CLint,32.2%
C[C@H](NC(=O)[C@H](CCCNC(=N)N)NC(=O)[C@H](Cc1c[nH]c2ccccc12)NC(=O)[C@H](CCCNC(=N)N)NC(=O)[C@H](Cc1c[nH]c2ccccc12)NC(=O)[C@H](Cc1c[nH]c2ccccc12)NC(=O)[C@H](Cc1c[nH]c2ccccc12)NC(=O)[C@H](CCCNC(=N)N)NC(=O)[C@H](Cc1c[nH]c2ccccc12)NC(=O)[C@H](CCCNC(=N)N)NC(=O)CN)C(N)=O,PK-15,,,,,LC50,285 µM
Nc1ncnc2c([C@@H]3N[C@H](CO)[C@@H](O)[C@H]3O)c[nH]c12,HeLa,,,12.5 µM,,cell number,5900 and 6000
CN1CC[C@@H](c2c(O)cc(O)c3c(=O)cc(-c4ccc(C(F)(F)F)cc4Cl)oc23)[C@@H]1CO,,refers to: Dyspnea,B-cell malignancies,"oral, 200 mg, intermittent dosing",,patients with adverse event,0%
CO[C@H]1C[C@@H]2CC[C@@H](C)[C@@](O)(O2)C(=O)C(=O)N2CCCC[C@H]2C(=O)O[C@H]([C@H](C)C[C@@H]2CC[C@@H](OC(=O)NCCOCCOCCOCCOCCOCCOCCOCCOCCC(=O)N3CCc4cc(Cn5nc(-c6ccc7oc(N)nc7c6)c6c(N)ncnc65)ccc4C3)[C@H](OC)C2)C[C@@H](O)[C@H](C)/C=C(\C)[C@@H](O)[C@@H](OC)C(=O)[C@H](C)C[C@H](C)/C=C/C=C/C=C/1C,,,patients with advanced solid tumours,"intravenous, 16 mg weekly, grade 3 or higher",,headache incidence,0%
CC(C)(c1ccc(O)cc1)c1ccc(O)cc1,HepG2 spheroids,annexin V-FITC/PI flow cytometry,,"0.10 µM, 96 h",,late apoptotic cells,20 ± 11.6%
O=[N+]([O-])c1ccc(N2CCN(CCC(O)c3ccc(F)cc3)CC2)c(C(F)(F)F)c1 (stereo not shown),Salmonella typhimurium,SOS/umu test,TA1535/pSK1002,"0.002 mg/mL, 4 h, with S9, lower range",,survival,100%
CC(C)C[C@H](NC(=O)[C@H](C)NC(=O)[C@@H](NC(=O)[C@H](CCCNC(=N)N)NC(=O)[C@H](CC(C)C)NC(=O)[C@H](Cc1c[nH]c2ccccc12)NC(=O)[C@@H]1CCCN1C(=O)[C@@H](N)CCCCN)C(C)C)C(=O)N[C@@H](CS)C(=O)N1CCC[C@H]1C(=O)NCC(=O)O,H9c2,WST-1,,"8 µM, 24 h",,viability,93.8% and 112% and 88.4%
Oc1ccc(C2(c3ccc(O)cc3)c3ccccc3-c3ccccc32)cc1,"HepG2 spheroids, dissociated",annexin V-FITC/PI flow cytometry,,"1 µM, 96 h",,viable cells,38.8 ± 7.06%
O=c1ccc2ccccc2o1,HepG2,refers to: cell count,,"concentration not given, 6 h, phospholipidosis and steatosis panel",,probability of response,0.39%
C[C@H]1CN(c2n[nH]c3nc(N[C@H]4CC[C@H](NS(=O)(=O)CCC(F)(F)F)CC4)ncc23)CCO1,"RAC-beta serine/threonine-protein kinase (AKT2, Homo sapiens, UniProt P31751)","inhibitor, Kinobeads competition profiling",,20 µM,reference: vehicle,relative abundance,1.24
[Cl-].[Cl-].[Pt+2].[Ru+2].c1ccc(-c2nc3cc4ccccc4cc3nc2-c2ccccn2)nc1.c1cnc2c(c1)ccc1cccnc12.c1cnc2c(c1)ccc1cccnc12,Danio rerio,,embryos,"75 µM, 0 h",,survival rate,100%
Cc1scc2c1N(C(=O)CN1CCN(C)CC1)c1ccccc1NC2=O,Plasmodium falciparum,,GB4,,,IC50,2 µM
CCCC[C@H](NC(C)=O)C(=O)N[C@@H](CO)C(=O)N[C@H](C(=O)N1CCC[C@H]1C(=O)N[C@@H](C)C(=O)N[C@@H](CCCNC(=N)N)C(=O)N[C@@H](CCCNC(=N)N)C(=O)N[C@@H](CCCNC(=N)N)C(=O)N[C@@H](CC(C)C)C(=O)N[C@@H](CCCC)C(=O)N[C@@H](CCCNC(=N)N)C(=O)N[C@@H](CC(=O)O)C(=O)N[C@@H](Cc1ccccc1)C(=O)N[C@@H](CCCCN)C(=O)N[C@@H](CCCNC(=N)N)C(=O)N[C@@H](CC(C)C)C(=O)N[C@@H](CCC(N)=O)C(N)=O)[C@@H](C)O,proteinase K,LC-MS,,"25 µM, 81.9 min, pH 7.4",,remaining peptide,2.6%
CC(=O)N1CCC(C(=O)N2CCN3C(=O)c4cc(-c5ccccc5)ccc4NC(=O)C3C2)CC1 (stereo not shown),Salmonella typhimurium,,TA1535,50 µg/plate,,revertants per plate,12.5
CCC1(C2=NCCN2)Cc2ccccc2O1 (stereo not shown),Plasmodium falciparum,,GB4,,,IC50,12.6 µM
COc1cc2c(Oc3ccc4[nH]c(C)cc4c3F)ccnc2cc1OCC1(N)CC1,,,paediatric recurrent refractory sarcoma,"concentration not given, whole group",,grade 3 Rash,0%
CC1(C)C(C=C(Cl)Cl)C1C(=O)OC(C#N)c1ccc(F)c(Oc2ccccc2)c1 (stereo not shown),human cytosolic CES1,IVIVE from expressed enzymes,"human, 6 months old, expressed human CES1",0.1 µM,reference: total hepatic CLint in vivo,relative enzyme contribution,34.2%
Cc1ncc2n1-c1ccc(Cl)cc1C(c1ccccc1F)=NC2,"Cytochrome P450 3A4 (CYP3A4, Homo sapiens, UniProt P08684)",,"human, plasma","oral, 2 mg, day 1, alone, geometric mean",,Vd/F,410 L
OCc1ncc2n1-c1ccc(Cl)cc1C(c1ccccc1F)=NC2,CYP3A4,substrate,"human, plasma","oral, 2 mg midazolam, day 14, cocktail with binimetinib and encorafenib",,AUC(0-t),142 ng·h/mL
Cc1cc(C(=O)NC(C)(C)COc2cccc3c2C(N)=NS(=O)(=O)N3)cc(C)n1,Salmonella typhimurium,"Ames test, initial",TA1537,1.50 µg/plate,reference: solvent control,revertant ratio,0.8
COc1cccc(-c2n[nH]c(SCc3ccccn3)n2)c1OC,Salmonella typhimurium,"Ames test, plate incorporation",TA98,"2.0 mg/plate, with rat liver S9",,revertant colonies per plate,17

# Excerpt of the above:
Structure (SMILES),tested on,assay,test system,setting,scale,measurement,value
CC1(C)[C@H](C(=O)OCc2cccc(Oc3ccccc3)c2)[C@@H]1C=C(Cl)Cl,human cytosolic CES1,IVIVE from expressed enzymes,"human, liver, in vivo scaled","0.1 µM, age-specific",,enzyme contribution to CLint,32.2%
COc1cc2c(Oc3ccc4[nH]c(C)cc4c3F)ccnc2cc1OCC1(N)CC1,,,paediatric recurrent refractory sarcoma,"concentration not given, whole group",,grade 3 Rash,0%
